Measurements of several laboratories.
Each numbered part is a random draw from the data of one study; scales do not carry over between parts. Changes are numbered by the printed parent chain.

Series 1 — target: CCNF, cyclin fold, Cln2 fusion (human); technique: yeast growth competition, sequencing; sample: yeast; notes: strong parent motif; baseline: not given; direction: higher = stronger binding
Parent: CDC25A docking peptide (human); PPHRRRLLFACSP; partner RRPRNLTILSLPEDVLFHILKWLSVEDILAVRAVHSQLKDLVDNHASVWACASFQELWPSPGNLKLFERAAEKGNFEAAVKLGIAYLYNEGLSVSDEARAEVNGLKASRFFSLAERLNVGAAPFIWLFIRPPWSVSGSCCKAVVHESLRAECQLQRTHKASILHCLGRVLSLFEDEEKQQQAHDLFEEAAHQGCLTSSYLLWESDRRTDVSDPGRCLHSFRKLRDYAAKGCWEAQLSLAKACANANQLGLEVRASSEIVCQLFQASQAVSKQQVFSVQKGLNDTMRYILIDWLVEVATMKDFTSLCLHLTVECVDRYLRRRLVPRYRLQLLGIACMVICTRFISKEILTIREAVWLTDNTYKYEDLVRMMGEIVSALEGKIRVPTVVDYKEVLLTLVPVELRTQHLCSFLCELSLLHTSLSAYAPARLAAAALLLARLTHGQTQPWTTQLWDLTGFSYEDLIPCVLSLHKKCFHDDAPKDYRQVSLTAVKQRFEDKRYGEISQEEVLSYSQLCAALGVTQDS
| Variant | normalised enrichment score |
| --- | --- |
| S12Q | 6.59 |
| R4T | 4.58 |
| R4Y | 2.78 |
| R4Q | 5.94 |
| P13H | 6.76 |
| P2V | 6.74 |
| L7I | 3.28 |
| L7S | 1.17 |
| P2F | 6.69 |
| L8N | 6.8 |
| P13R | 5.94 |
| S12W | 6.05 |
| P1Q | 7.82 |
| P13D | 8.79 |
| L7E | 0.625 |
| R4E | 1.47 |
| H3D | 2.76 |

Series 2 — technique: protein binding microarray; form: double-stranded DNA, one strand shown; sample: in vitro; tested at: not given; baseline: not given; direction: higher = stronger binding
Target: Histone acetyltransferase KAT6A, both winged helices, GST fusion (KAT6A, Homo sapiens, UniProt Q92794, residues 1-181)
Notes: 8-mer, flanks averaged, mean of 2 arrays, mostly near background
Target sequence (chain): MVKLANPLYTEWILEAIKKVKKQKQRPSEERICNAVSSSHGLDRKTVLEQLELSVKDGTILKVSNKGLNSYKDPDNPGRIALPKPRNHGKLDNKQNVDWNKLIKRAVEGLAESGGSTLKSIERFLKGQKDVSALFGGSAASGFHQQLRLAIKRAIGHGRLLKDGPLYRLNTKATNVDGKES
| Strand | E-score |
| --- | --- |
| AGATTACG | 0.152 |
| AAGAAACA | 0.0471 |
| AGCATCCT | -0.14 |
| GTTCCTGA | -0.143 |
| CCTACGGC | 0.196 |
| AATCGGCG | 0.243 |
| ACAAGCCA | -0.17 |
| ATGTAAAT | -0.0668 |
| ACTTAGCA | -0.219 |
| GAGCGGAC | 0.217 |
| ACGATTGA | -0.057 |
| ACATCATG | -0.0556 |
| TTATCAAA | -0.00402 |
| AACTGGAT | -0.0922 |
| CAAACTTG | -0.00834 |
| CCACGCGC | 0.277 |

Series 3 — technique: protein-binding microarray; form: double-stranded DNA, one strand shown; sample: in vitro; tested at: 2200 nM top; notes: 60-bp whole probe; together with: salmon DNA 0.4 mg/ml; baseline: random background probes; direction: higher = stronger binding; shared flanks, not repeated: GCCTAGCAC … GTCTTGATTCGCTTGACGCTGCTG
Target: Interferon regulatory factor 7, full length, phosphomimetic (IRF7, Homo sapiens, UniProt Q92985, residues 1-503, S471D/S472D/S475D/S476D/S477D/S483D/S484D/S487D)
UniProt Q92985, sequence (whole entry, unmodified, looked up): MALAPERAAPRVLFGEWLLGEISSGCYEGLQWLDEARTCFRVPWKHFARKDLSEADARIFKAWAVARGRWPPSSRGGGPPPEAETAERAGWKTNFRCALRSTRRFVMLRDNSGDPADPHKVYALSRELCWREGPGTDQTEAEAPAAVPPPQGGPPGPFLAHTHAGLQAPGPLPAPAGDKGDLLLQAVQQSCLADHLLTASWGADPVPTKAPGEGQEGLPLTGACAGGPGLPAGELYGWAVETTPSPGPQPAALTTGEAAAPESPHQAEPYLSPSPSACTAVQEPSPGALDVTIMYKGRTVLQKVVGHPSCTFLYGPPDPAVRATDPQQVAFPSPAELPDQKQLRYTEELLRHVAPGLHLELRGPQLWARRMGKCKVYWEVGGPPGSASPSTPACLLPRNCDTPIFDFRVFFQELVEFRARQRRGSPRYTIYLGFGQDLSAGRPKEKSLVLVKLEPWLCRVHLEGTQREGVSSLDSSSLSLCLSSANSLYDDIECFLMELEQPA
| Strand | fitted relative affinity [z-score] |
| --- | --- |
| GCCGGTCTCGGTTTCGGGACGTGCTAG | 3.92 |
| TCACCAATCATTTTTGCACTGTGCTAG | 1.21 |
| TCACCTCTAGGTTTTCTACTGTGCTAG | 1.11 |
| TCATGTCTGTGTCACAGAGAGTGCTAG | 0.804 |
| TTAGATTTCGGGTATCGATCAGTGCTA | 2.66 |
| GACGATTCCAGTTTCGAGAGGTGCTAG | 2.85 |
| TTCCTTTCTCTTCCGTTAGCGTGCTAG | 4.33 |
| CCTAATCTCAGCCTCCGTCAGTGCTAG | 0.956 |
| GTCGGACTGGGGTTTCGGGACGTGCTA | 0.62 |
| TCATGTGTACATCTCTCACTGTGCTAG | 1.19 |
| GATGATATCAGACTGGAGACGTGCTAG | -0.00469 |
| GACGGACTGGGGACTGGGGGCGTGCTA | 0.0532 |
| TTAGAACTTGGGACTGGATTAGTGCTA | -0.65 |
| GACGGTATCGGGACTGGGCACGTGCTA | -0.693 |
| TCAATTTTTAGGATGGGACTGTGCTAG | -0.195 |
| GACGGTTTCGGTATTGGGACGTGCTAG | 7.38 |

Series 4 — technique: aptamer microarray, sandwich; form: DNA with 2'F-ANA; sample: in vitro; tested at: 200 nM; together with: Cy3 exosite-II aptamer, 400 nM; direction: higher = stronger binding; strand: GGTTGGTGTGGTTGG
Target: Prothrombin, mature alpha-thrombin (F2, Homo sapiens, UniProt P00734)
Notes: whole 15-mer aptamer, many near background
| Modification | mean fluorescence intensity |
| --- | --- |
| 2'F-ANA at 1 2 3 4 5 7 9 12 15 | 115 a.u. |
| 2'F-ANA at 2 3 6 8 11 13 | 646 a.u. |
| 2'F-ANA at 1 3 5 6 8 9 10 12 13 14 | 47.1 a.u. |
| 2'F-ANA at 5 8 10 11 14 | 42.1 a.u. |
| 2'F-ANA at 1 2 3 4 8 11 15 | 193 a.u. |
| 2'F-ANA at 1 2 3 4 5 7 8 10 13 14 15 | 48.1 a.u. |
| 2'F-ANA at 1 3 4 5 6 7 11 13 | 46.3 a.u. |
| 2'F-ANA at 1 2 3 4 5 7 11 12 13 14 15 | 49.5 a.u. |
| 2'F-ANA at 2 4 6 7 10 11 12 13 15 | 89.7 a.u. |
| 2'F-ANA at 1 3 4 5 6 8 9 11 13 14 15 | 50.6 a.u. |
| 2'F-ANA at 2 3 5 6 7 11 12 15 | 129 a.u. |
| 2'F-ANA at 1 2 5 6 8 9 10 12 13 15 | 52.1 a.u. |
| 2'F-ANA at 1 2 4 10 15 | 54.9 a.u. |
| 2'F-ANA at 1 4 5 6 7 8 10 15 | 48.4 a.u. |
| 2'F-ANA at 1 2 5 6 8 11 12 13 14 | 48.3 a.u. |
| 2'F-ANA at 3 4 7 8 10 11 12 13 14 15 | 176 a.u. |

Series 5 — technique: protein-binding microarray; form: hairpin DNA; sample: in vitro; tested at: not given; baseline: not given; direction: higher = stronger binding
Target: Runt-related transcription factor 1, full length (RUNX1, Homo sapiens, UniProt Q01196-8, residues 1-480)
Notes: whole hairpin DNA, median over replicate spots
| Strand | median fluorescence |
| --- | --- |
| GAGGCCCGTCGCGGTTGGCCTCCTGGCCAACCGCGACGGGCCTCACACTC (5mC at 7) | 2650 a.u. |
| CTCAGTTCTGGGGGCTGGACTCCTGTCCAGCCCCCAGAACTGAGACACTC (5mC at 34) | 1860 a.u. |
| GAGGCCTGTCGCGGTTGCCCTCCTGGGCAACCGCGACAGGCCTCACACTC (5mC at 18) | 2560 a.u. |
| GAGGCCTGTTGTGGTTAGCCTCCTGGCTAACCACAACAGGCCTCACACTC | 5780 a.u. |
| GAGGCCTGTTGCGGGTGGCCTCCTGGCCACCCGCAACAGGCCTCACACTC | 2400 a.u. |
| GAGGCCTGTGGCGGTTGGCCTCCTGGCCAACCGCCACAGGCCTCACACTC | 2570 a.u. |
| CTCAGATCTGTGGGCTGGACTCCTGTCCAGCCCACAGATCTGAGACACTC | 1960 a.u. |

Series 6 — technique: protein-binding microarray; form: double-stranded DNA, one strand shown; sample: in vitro; tested at: not given; direction: higher = stronger binding
Target: Hepatocyte nuclear factor 3-beta, forkhead domain (FOXA2, Homo sapiens, UniProt Q9Y261, residues 142-269)
Notes: k-mer, scored over probes, only values ≥0.25
Residues (chain): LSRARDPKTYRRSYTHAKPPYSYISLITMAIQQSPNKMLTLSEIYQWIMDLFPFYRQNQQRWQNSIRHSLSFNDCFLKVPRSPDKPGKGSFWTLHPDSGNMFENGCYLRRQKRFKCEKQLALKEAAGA
| Strand | E-score |
| --- | --- |
| TAACTGTA | 0.307 |
| ATTAGACA | 0.286 |
| ATAATAAT | 0.309 |
| CATACATC | 0.263 |
| GACAAACA | 0.297 |
| AACTGATA | 0.258 |
| ACTATACT | 0.319 |
| ACATACAC | 0.329 |
| CAAAATAC | 0.284 |
| AGAAGTAT | 0.269 |
| ATTATTGA | 0.263 |

Series 7 — technique: DHFR PCA, dose-response; sample: yeast; notes: Hill fit, mean, not affinity; together with: (+)-ABA, dose series; direction: lower = more sensitive
Target: ABI1, truncated, D143A, DHFR fusion (Arabidopsis thaliana, UniProt P49597)
Parent: PYL1, truncated, DHFR fusion (Arabidopsis thaliana, UniProt Q8VZS8); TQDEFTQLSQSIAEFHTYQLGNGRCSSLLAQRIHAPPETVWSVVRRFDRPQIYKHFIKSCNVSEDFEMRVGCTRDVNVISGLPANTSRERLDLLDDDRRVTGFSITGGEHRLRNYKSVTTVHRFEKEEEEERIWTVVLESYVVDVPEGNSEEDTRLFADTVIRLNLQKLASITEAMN
| Variant | ABA EC50 [µM] |
| --- | --- |
| D65V | 11.1 |
| Q7N | 2.54 |
| Q51M | 26.7 |
| L28F | 10.4 |
| R32C | 4.3 |
| S87A | 21.6 |
| H55M | 0.376 |
| Q19W | 12.9 |
| G108M | 598 |
| P37I | 6 |
| D65E | 2.51 |
| L166M | 13.7 |

Series 8 — technique: universal PBM; form: double-stranded DNA, one strand shown; sample: in vitro; tested at: 600 nM; direction: higher = stronger binding
Target: Sal-like protein 4, full length isoform A (SALL4, Homo sapiens, UniProt Q9UJQ4, residues 1-1053)
UniProt Q9UJQ4, sequence (whole entry, looked up): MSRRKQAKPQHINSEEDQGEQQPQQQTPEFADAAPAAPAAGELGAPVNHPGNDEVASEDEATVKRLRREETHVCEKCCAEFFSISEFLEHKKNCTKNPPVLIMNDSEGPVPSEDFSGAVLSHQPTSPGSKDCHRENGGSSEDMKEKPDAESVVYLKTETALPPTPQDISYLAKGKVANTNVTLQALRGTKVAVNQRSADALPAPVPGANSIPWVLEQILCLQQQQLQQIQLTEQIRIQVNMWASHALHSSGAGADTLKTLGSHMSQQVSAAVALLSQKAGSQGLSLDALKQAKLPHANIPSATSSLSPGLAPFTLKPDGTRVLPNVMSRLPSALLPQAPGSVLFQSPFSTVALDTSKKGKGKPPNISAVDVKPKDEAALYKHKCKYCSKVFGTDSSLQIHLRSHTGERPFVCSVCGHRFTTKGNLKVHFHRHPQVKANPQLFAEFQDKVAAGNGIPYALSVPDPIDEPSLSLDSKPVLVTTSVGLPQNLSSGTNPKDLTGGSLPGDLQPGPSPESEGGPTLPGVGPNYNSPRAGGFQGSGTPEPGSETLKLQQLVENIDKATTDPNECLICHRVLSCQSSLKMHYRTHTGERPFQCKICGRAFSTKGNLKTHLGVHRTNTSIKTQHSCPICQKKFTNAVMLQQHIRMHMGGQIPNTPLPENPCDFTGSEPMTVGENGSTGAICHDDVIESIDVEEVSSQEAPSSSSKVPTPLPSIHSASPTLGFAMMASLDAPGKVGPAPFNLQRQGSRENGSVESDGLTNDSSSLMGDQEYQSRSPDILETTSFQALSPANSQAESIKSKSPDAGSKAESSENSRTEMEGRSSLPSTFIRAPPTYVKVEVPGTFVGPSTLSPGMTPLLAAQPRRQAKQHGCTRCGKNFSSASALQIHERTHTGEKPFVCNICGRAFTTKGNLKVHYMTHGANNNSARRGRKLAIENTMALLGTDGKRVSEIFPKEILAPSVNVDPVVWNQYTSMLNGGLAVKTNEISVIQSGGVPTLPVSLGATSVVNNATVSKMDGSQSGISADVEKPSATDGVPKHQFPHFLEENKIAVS
Notes: 8-mer, flanks averaged, mean of replicates
| Strand | E-score |
| --- | --- |
| CATTATCA | 0.294 |
| GAACATCC | -0.0841 |
| CGCGCCGA | -0.288 |
| CCTCGAGA | -0.18 |
| CGCACAAA | -0.014 |
| CGCTAGCC | -0.317 |
| TGGACACA | -0.0123 |
| CAGCAGGA | -0.0868 |
| GGTAAGCA | -0.0892 |
| ACCGGTGA | -0.195 |
| CTGCCAGA | -0.186 |
| CAACCGAG | -0.144 |
| AGGGTTAA | 0.0733 |
| CATAATCC | 0.204 |
| ACTTGAAG | 0.201 |
| CAGTGGTC | -0.237 |
| AGATAGCT | 0.0162 |
| GTGGTCGA | -0.2 |
| AGTAGCCC | -0.18 |
| CGCGTAGC | -0.272 |
| ACCCGCCC | -0.192 |
| CGGAGACG | -0.156 |
| CCTGCGCG | -0.176 |
| AATCGCTG | -0.105 |

Some of these lines once more (series 4):
| Modification | mean fluorescence intensity |
| --- | --- |
| 2'F-ANA at 1 3 5 6 8 9 10 12 13 14 | 47.1 a.u. |
| 2'F-ANA at 1 3 4 5 6 8 9 11 13 14 15 | 50.6 a.u. |
| 2'F-ANA at 2 3 5 6 7 11 12 15 | 129 a.u. |
| 2'F-ANA at 1 2 3 4 5 7 9 12 15 | 115 a.u. |
| 2'F-ANA at 1 2 4 10 15 | 54.9 a.u. |
| 2'F-ANA at 2 3 6 8 11 13 | 646 a.u. |
| 2'F-ANA at 1 2 5 6 8 11 12 13 14 | 48.3 a.u. |
| 2'F-ANA at 3 4 7 8 10 11 12 13 14 15 | 176 a.u. |
| 2'F-ANA at 1 2 5 6 8 9 10 12 13 15 | 52.1 a.u. |
| 2'F-ANA at 1 2 3 4 5 7 8 10 13 14 15 | 48.1 a.u. |
| 2'F-ANA at 2 4 6 7 10 11 12 13 15 | 89.7 a.u. |
| 2'F-ANA at 1 4 5 6 7 8 10 15 | 48.4 a.u. |
| 2'F-ANA at 1 2 3 4 8 11 15 | 193 a.u. |
| 2'F-ANA at 5 8 10 11 14 | 42.1 a.u. |
